Measurements from different studies.
Technique: steady-state kinetics
B1: AKR1C1 (Homo sapiens, UniProt Q04828); chain MDSKYQCVKLNDGHFMPVLGFGTYAPAEVPKSKALEATKLAIEAGFRHIDSAHLYNNEEQVGLAIRSKIADGSVKREDIFYTSKLWCNSHRPELVRPALERSLKNLQLDYVDLYLIHFPVSVKPGEEVIPKDENGKILFDTVDLCATWEAVEKCKDAGLAKSIGVSNFNRRQLEMILNKPGLKYKPVCNQVECHPYFNQRKLLDFCKSKDIVLVAYSALGSHREEPWVDPNSPVLLEDPVLCALAKKHKRTPALIALRYQLQRGVVVLAKSYNEQRIRQNVQVFEFQLTSEEMKAIDGLNRNVRYLTLDIFAGPPNYPFSDEY
B2: BaiA1 (Clostridium scindens, UniProt P07914); chain MKLVQDKITIITGGTRGIGFAAAKLFIENGAKVSIFGETQEEVDTALAQLKELYPEEEVLGFAPDLTSRDAVMAAVGTVAQKYGRLDVMINNAGITMNSVFSRVSEEDFKNIMDINVNGVFNGAWSAYQCMKDAKQGVIINTASVTGIYGSLSGIGYPTSKAGVIGLTHGLGREIIRKNIRVVGVAPGVVDTDMTKGLPPEILEDYLKTLPMKRMLKPEEIANVYLFLASDLASGITATTISVDGAYRP
B3: focA F75A (Escherichia coli, UniProt P0AC23); chain MKADNPFDLLLPAAMAKVAEEAGVYKATKHPLKTFYLAITAGVFISIAFVFYITATTGTGTMPFGMAKLVGGICASLGLILCVVCGADLFTSTVLIVVAKASGRITWGQLAKNWLNVYFGNLVGALLFVLLMWLSGEYMTANGQWGLNVLQTADHKVHHTFIEAVCLGILANLMVCLAVWMSYSGRSLMDKAFIMVLPVAMFVASGFEHSIANMFMIPMGIVIRDFASPEFWTAVGSAPENFSHLTVMNFITDNLIPVTIGNIIGGGLLVGLTYWVIYLRENDHH
B4: putA D779Y (Bradyrhizobium diazoefficiens, UniProt Q89E26); chain MPNIPPPFTAPYAPDDAEIAARLLPASHLSPPQEARIHRTATRLIEAIRKRDDRLGGVEDMLREFALSTKEGLALMVLAEALLRVPDARTADQFIEDKLGEGDFIHHETKSTAFLVNASAWALGLSARVIQPGETPDGTIGRLVKRLGAPAVRTATRQAMRLMGNHFVLGETIEQALERGKPRSGQKTRYSFDMLGEGARTAADARRYFDAYASAIETIGKAAGNHALPDRPGISVKLSALHPRFEAISRARVMVELVPQLLDLAQRAKAHDLNFTVDAEEADRLELSLDVIAATLADPSLKGWDGFGLAIQAYQKRASAVIDYVDALARAHDRKLMVRLVKGAYWDTEIKRAQERGLDGYPVFTRKAMTDLNYVACASKLLALRPRIFPQFATHNALTVATVLEMAEGSSGFEFQRLHGMGEALYEQLAKDHADIAYRTYAPVGSHRDLLAYLVRRLLENGANSSFVAQAADYRVPVPALLQRPADAIVRPQAAAHPRIPLPCDLFAPERRNSRGVEFGARTALDQLLTDVKAETGDLKPIADATPDQAHAAVAAARAGFAGWSRTPAGIRAAALEQAAHLLESRSAHFIALLQREGGKTLDDALSELREAADFCRYYAAQGRKLFGSETAMPGPTGESNALTMRGRGVFVAISPWNFPLAIFLGQVTAALMAGNSVVAKPAEQTPRIAREAVALLHEAGIPKSALYLVTGDGRIGAALTAHPDIAGVVFTGSTEVARSINRALAAKDGPIVPLIAETGGINAMIADATALPEQVADYVVTSAFRSAGQRCSALRLLFVQEDVADRMIEMVAGAARELKIGDPSDVATHVGPVIDVEAKQRLDAHIARMKTEARLHFAGPAPEGCFVAPHIFELTEAGQLTEEVFGPILHVVRYRPENLERVLRAIERTGYGLTLGVHSRIDDSIEAIIDRVQVGNIYVNRNMIGAVVGVQPFGGNGLSGTGPKAGGPHYLARFATEQTVTINTAAAGGNAALLAGEE
B5: aromatic amino acid decarboxylase (Bacillus atrophaeus, UniProt I0DFJ0); chain MSENLQLSAEEMRQLGYQAVDLIIDHMNHLKSKPVSETIDSDILRNKLTESIPENGSDPKELLHFLNRNVFNQITHVDHPHFLAFVPGPNNYVGVVADFLASGFNVFPTAWIAGAGAEQIELTTINWLKSMLGFPDSAEGLFVSGGSMANLTALTVARQAKLNNDIENAVVYFSDQTHFSVDRALKVLGFKHHQICRIETDEHLRISVSALKKQIKEDRTKGKKPFCVIANAGTTNCGAVDSLNELADLCNDEDVWLHADGSYGAPAILSEKGSAMLQGIHRADSLTLDPHKWLFQPYDVGCVLIRNSQYLSKTFRMMPEYIKDSETNVEGEINFGECGIELSRRFRALKVWLSFKVFGVAAFRQAIDHGIMLAEQVEAFLGKAKDWEVVTPAQLGIVTFRYIPSELASTDTINEINKKLVKEITHRGFAMLSTTELKEKVVIRLCSINPRTTTEEMLQIMMKIKALAEEVSISYPCVAE
B6: UGT1A9 (Homo sapiens, UniProt O60656); chain GKLLVVPMDGSHWFTMRSVVEKLILRGHEVVVVMPEVSWQLGRSLNCTVKTYSTSYTLEDLDREFKAFAHAQWKAQVRSIYSLLMGSYNDIFDLFFSNCRSLFKDKKLVEYLKESSFDAVFLDPFDNCGLIVAKYFSLPSVVFARGILCHYLEEGAQCPAPLSYVPRILLGFSDAMTFKERVRNHIMHLEEHLLCHRFFKNALEIASEILQTPVTEYDLYSHTSIWLLRTDFVLDYPKPVMPNMIFIGGINCHQGKPLPMEFEAYINASGEHGIVVFSLGSMVSEIPEKKAMAIADALGKIPQTVLWRYTGTRPSNLANNTILVKWLPQNDLLGHPMTRAFITHAGSHGVYESICNGVPMVMMPLFGDQMDNAKRMETKGAGVTLNVLEMTSEDLENALKAVINDKSYKENIMRLSSLHKDRPVEPLDLAVFWVEFVMRHKGAPHLRPAAHDLTWYQYHSLDVIGFLLAVVLTVAFITFKCCAYGYRKCLGKKGRVKKAHKSKTH
B7: protein (UniProt Q52060); chain MNQKLKVAIIGSGNIGTDLMIKVLRNAKYLEMGAMVGIDAASDGLARAQRMGVTTTYAGVEGLIKLPEFADIDFVFDATSASAHVQNEALLRQAKPGIRLIDLTPAAIGPYCVPVVNLEEHLGKLNVNMVTCGGQATIPMVAAVSRVAKVHYAEIVASISSKSAGPGTRANIDEFTETTSKAIEVIGGAAKGKAIIIMNPAEPPLIMRDTVYVLSAAADQAAVAASVAEMVQAVQAYVPGYRLKQQVQFDVIPESAPLNIPGLGRFSGLKTSVFLEVEGAAHYLPAYAGNLDIMTSAALATAERMAQSMLNA
B8: LYS1 C205S/K99M (Saccharomyces cerevisiae, UniProt P38998); chain MAAVTLHLRAETKPLEARAALTPTTVKKLIAKGFKIYVEDSPQSTFNINEYRQAGAIIVPAGSWKTAPRDRIIIGLKEMPETDTFPLVHEHIQFAHCYMDQAGWQNVLMRFIKGHGTLYDLEFLENDQGRRVAAFGFYAGFAGAALGVRDWAFKQTHSDDEDLPAVSPYPNEKALVKDVTKDYKEALATGARKPTVLIIGALGRSGSGAIDLLHKVGIPDANILKWDIKETSRGGPFDEIPQADIFINCIYLSKPIAPFTNMEKLNNPNRRLRTVVDVSADTTNPHNPIPIYTVATVFNKPTVLVPTTAGPKLSVISIDHLPSLLPREASEFFSHDLLPSLELLPQRKTAPVWVRAKKLFDRHCARVKRSSRL
B9: Pck1 A467G (Rattus norvegicus, UniProt P07379); chain MPPQLHNGLDFSAKVIQGSLDSLPQEVRKFVEGNAQLCQPEYIHICDGSEEEYGRLLAHMQEEGVIRKLKKYDNCWLALTDPRDVARIESKTVIITQEQRDTVPIPKSGQSQLGRWMSEEDFEKAFNARFPGCMKGRTMYVIPFSMGPLGSPLAKIGIELTDSPYVVASMRIMTRMGTSVLEALGDGEFIKCLHSVGCPLPLKKPLVNNWACNPELTLIAHLPDRREIISFGSGYGGNSLLGKKCFALRIASRLAKEEGWLAEHMLILGITNPEGKKKYLAAAFPSACGKTNLAMMNPTLPGWKVECVGDDIAWMKFDAQGNLRAINPENGFFGVAPGTSVKTNPNAIKTIQKNTIFTNVAETSDGGVYWEGIDEPLAPGVTITSWKNKEWRPQDEEPCAHPNSRFCTPASQCPIIDPAWESPEGVPIEGIIFGGRRPAGVPLVYEALSWQHGVFVGAAMRSEATAGAEHKGKVIMHDPFAMRPFFGYNFGKYLAHWLSMAHRPAAKLPKIFHVNWFRKDKNGKFLWPGFGENSRVLEWMFGRIEGEDSAKLTPIGYVPKEDALNLKGLGDVNVEELFGISKEFWEKEVEEIDKYLEDQVNADLPYEIERELRALKQRISQM
B10: YdjH (Escherichia coli, UniProt P77493); chain MDNLDVICIGAAIVDIPLQPVSKNIFDVDSYPLERIAMTTGGDAINEATIISRLGHRTALMSRIGKDAAGQFILDHCRKENIDIQSLKQDVSIDTSINVGLVTEDGERTFVTNRNGSLWKLNIDDVDFARFSQAKLLSLASIFNSPLLDGKALTEIFTQAKARQMIICADMIKPRLNETLDDICEALSYVDYLFPNFAEAKLLTGKETLDEIADCFLACGVKTVVIKTGKDGCFIKRGDMTMKVPAVAGITAIDTIGAGDNFASGFIAALLEGKNLRECARFANATAAISVLSVGATTGVKNRKLVEQLLEEYEG
UniProt Q92UV7, sequence (whole entry, looked up): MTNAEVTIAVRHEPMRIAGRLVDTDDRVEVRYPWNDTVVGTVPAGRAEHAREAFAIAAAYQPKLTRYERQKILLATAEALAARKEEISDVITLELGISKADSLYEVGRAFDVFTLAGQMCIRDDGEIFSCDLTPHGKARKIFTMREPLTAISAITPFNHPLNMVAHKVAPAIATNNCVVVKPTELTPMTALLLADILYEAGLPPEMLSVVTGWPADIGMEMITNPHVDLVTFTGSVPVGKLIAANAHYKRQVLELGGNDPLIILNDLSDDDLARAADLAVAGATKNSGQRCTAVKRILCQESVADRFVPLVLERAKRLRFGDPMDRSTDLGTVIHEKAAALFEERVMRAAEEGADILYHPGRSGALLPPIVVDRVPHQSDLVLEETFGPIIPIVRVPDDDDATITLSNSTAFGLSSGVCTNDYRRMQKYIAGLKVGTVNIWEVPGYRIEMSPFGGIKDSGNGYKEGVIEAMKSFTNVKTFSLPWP
UniProt P23262, sequence (whole entry, looked up): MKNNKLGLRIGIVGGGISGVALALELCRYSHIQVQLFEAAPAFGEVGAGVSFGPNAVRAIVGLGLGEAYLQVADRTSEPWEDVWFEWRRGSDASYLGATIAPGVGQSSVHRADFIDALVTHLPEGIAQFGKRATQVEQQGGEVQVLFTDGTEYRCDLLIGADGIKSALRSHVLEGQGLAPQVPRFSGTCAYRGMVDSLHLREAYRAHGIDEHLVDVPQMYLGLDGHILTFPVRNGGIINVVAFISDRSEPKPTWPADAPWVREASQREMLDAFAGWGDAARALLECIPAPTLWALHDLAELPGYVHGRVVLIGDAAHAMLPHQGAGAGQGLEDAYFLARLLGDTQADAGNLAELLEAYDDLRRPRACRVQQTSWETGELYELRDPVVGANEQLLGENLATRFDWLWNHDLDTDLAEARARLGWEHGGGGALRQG
UniProt Q9H1U9, sequence (whole entry, looked up): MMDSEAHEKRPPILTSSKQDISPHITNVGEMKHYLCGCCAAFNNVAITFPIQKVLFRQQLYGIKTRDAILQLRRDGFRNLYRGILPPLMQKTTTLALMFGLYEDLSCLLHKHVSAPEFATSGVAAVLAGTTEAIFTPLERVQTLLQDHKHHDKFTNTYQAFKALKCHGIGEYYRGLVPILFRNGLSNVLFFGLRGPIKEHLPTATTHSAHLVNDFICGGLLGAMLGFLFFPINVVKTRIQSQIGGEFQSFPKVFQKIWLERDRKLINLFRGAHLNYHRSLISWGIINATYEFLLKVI

| Substance | substrate | test system | conditions | Km [µM] |
| --- | --- | --- | --- | --- |
| LovD A190T/A86V/C40A/C60N/D12G/G275S (Aspergillus terreus) | CCC(C)(C)C(=O)SCCC(=O)OC |  | 25 °C, 10% DMSO, with: 2 mM MJA | 700 |
| protein (Candidatus Protochlamydia amoebophila, UniProt A0A2P9HA01) | Nc1nc2c(ncn2[C@@H]2O[C@H](COP(=O)(O)OP(=O)(O)O)[C@@H](O)[C@H]2O)c(=O)[nH]1 |  | pH 7, 30 °C, transporter, labelled substrate, apparent, not purified | 59 |
| B1 (AKR1C1) | C=C1C[C@@H]2[C@H](CC[C@]3(C)C(=O)CC[C@@H]23)[C@@]2(C)C=CC(=O)C=C12 |  | 37 °C | 35.3 |
| B2 (BaiA1) | C[C@H](CCC(=O)SCCNC(=O)CCNC(=O)[C@H](O)C(C)(C)COP(=O)(O)OP(=O)(O)OC[C@H]1O[C@@H](n2cnc3c(N)ncnc32)[C@H](O)[C@@H]1OP(=O)(O)O)[C@H]1CC[C@H]2[C@@H]3[C@H](O)C[C@@H]4CC(=O)CC[C@]4(C)[C@H]3C[C@H](O)[C@]12C |  | pH 8.7, 37 °C, with: NADH | 9.1 |
| nahG (Pseudomonas putida, UniProt P23262) | Cc1cc2nc3c(=O)[nH]c(=O)nc-3n(C[C@H](O)[C@H](O)[C@H](O)COP(=O)(O)OP(=O)(O)OC[C@H]3O[C@@H](n4cnc5c(N)ncnc54)[C@H](O)[C@@H]3O)c2cc1C |  | pH 8.5, 25 °C, apparent, cofactor varied, with: NADH 200 µM, salicylate 150 µM | 0.53 |
| B3 (focA F75A) | O=CO |  | pH 6.8, 19 °C, apparent, not purified | 100000 |
| enzyme (Sinorhizobium meliloti, UniProt Q92UV7) | NC(=O)c1ccc[n+]([C@@H]2O[C@H](COP(=O)(O)OP(=O)(O)OC[C@H]3O[C@@H](n4cnc5c(N)ncnc54)[C@H](O)[C@@H]3O)[C@@H](O)[C@H]2O)c1 |  | pH 7.5, 30 °C, cofactor varied | 58 |
| BCAA decarboxylase (Echinacea purpurea, UniProt A0A1A8JL35) | CC(C)[C@H](N)C(=O)O |  | pH 7.5, 37 °C, with: PLP 1 mM | 15800 |
| B4 (putA D779Y) | O=C(O)[C@@H]1CCC=N1 |  | pH 7.5, 23 °C | 200 |
| B5 | N[C@@H](Cc1c[nH]c2ccccc12)C(=O)O |  | pH 7, 37 °C, not purified, with: PLP 40 µM | 900 |
| pgmB H20A (Lactococcus lactis) (sequence not shown) | O=P(O)(O)OC[C@H]1O[C@@H](OP(=O)(O)O)[C@H](O)[C@@H](O)[C@@H]1O |  | pH 7, 25 °C | 2.6 |
| B6 (UGT1A9) | CC(=O)c1ccc(O)cc1 |  | pH 7.4, 37 °C | 317 |
| B7 (protein) | CC=O | cell extract | not purified, with: CoA | 22400 |
| enzyme (Homo sapiens, UniProt Q9H1U9) | NC(=O)c1ccc[n+]([C@@H]2O[C@H](COP(=O)(O)OP(=O)(O)OC[C@H]3O[C@@H](n4cnc5c(N)ncnc54)[C@H](O)[C@@H]3O)[C@@H](O)[C@H]2O)c1 |  | pH 6.8, apparent, not purified | 200 |
| B8 (LYS1 C205S/K99M) | O=C(O)CCC(=O)C(=O)O |  | pH 7.2, 25 °C, with: NADH and Lys | 8800 |
| B9 (Pck1 A467G) | C=C(OP(=O)(O)O)C(=O)O |  | pH 7.5, 25 °C | 63 |
| B10 (YdjH) | O=C(O)[C@H](O)[C@@H](O)[C@H](O)[C@H](O)CO |  | pH 7.4, 30 °C, KCl 100 mM, with: ATP 2.0 mM, MgCl2 5.0 mM | 18 |

Some of these lines once more:
| Substance | substrate | test system | conditions | Km [µM] |
| --- | --- | --- | --- | --- |
| B7 (protein) | CC=O | cell extract | not purified, with: CoA | 22400 |
| pgmB H20A (Lactococcus lactis) (sequence not shown) | O=P(O)(O)OC[C@H]1O[C@@H](OP(=O)(O)O)[C@H](O)[C@@H](O)[C@@H]1O |  | pH 7, 25 °C | 2.6 |
| B4 (putA D779Y) | O=C(O)[C@@H]1CCC=N1 |  | pH 7.5, 23 °C | 200 |
